{"data": "Experimental data gathered from unrelated publications", "note": "Each line is one published result; not all experiments were run side by side."}
{"Structure (SMILES)": "CN1CCC[C@@H]1C(=O)N[C@@H](Cc1ccc(-c2ccccc2)cc1)B(O)O", "system": "male Sprague-Dawley rat, plasma", "setting": "oral, 1 mg/kg", "bioavailability": "50%"}
{"Structure (SMILES)": "CC(=Nc1ccc(N)cc1)N(C)C", "system": "male Sprague-Dawley rat, plasma", "setting": "oral, 200 mg/kg", "bioavailability": "99.5%"}
{"Structure (SMILES)": "O=c1c(-c2ccc(Cl)c(CN3CCOCC3)c2)coc2cc(O)ccc12", "system": "male Sprague-Dawley rat, plasma", "setting": "oral, 10 mg/kg", "bioavailability": "16%"}
{"Structure (SMILES)": "COc1cc(OC)c2c(=O)cc(-c3cc(C)c(OCCCN4CCN(C)CC4)c(C)c3)oc2c1", "system": "male Sprague-Dawley rat, plasma", "setting": "oral, 20 mg/kg, single dose", "bioavailability": "77.6%"}
{"Structure (SMILES)": "O=C(Nc1cc(-c2ccnc3[nH]ccc23)c(Cl)cn1)[C@H]1CCC[C@@H](NC(=O)C(F)(F)F)C1", "system": "rat, plasma", "setting": "oral", "bioavailability": "16.5%"}
{"Structure (SMILES)": "Cc1[nH]nc2c1N=C(c1ccccc1Cl)c1cnc(N3CCOCC3)cc1N2", "system": "male Sprague-Dawley rat, plasma", "setting": "oral, 5 mg/kg", "bioavailability": "57%"}
{"Structure (SMILES)": "C[C@@H](CO)NC(=O)c1cc(-c2ccc(Cl)cc2)nn(-c2cnn(C)c2)c1=O", "system": "male Wistar rat, plasma", "setting": "oral", "bioavailability": "54%"}
{"Structure (SMILES)": "CCC1(CC)CC(=O)N(C2c3cc(C(=O)NC4c5ccccc5CC4O)ccc3OC2(C)COC)C(=N)N1 (centres unmarked)", "system": "male Wistar rat, plasma", "setting": "oral", "bioavailability": "26%"}
{"Structure (SMILES)": "CCC(CC)n1c(Cc2cccs2)nc2cc(C(=O)N[C@@H](CC(=O)O)c3ccccc3)ccc21", "system": "male Sprague-Dawley rat, plasma", "setting": "intraperitoneal, 10 mg/kg", "bioavailability": "65.7%"}
{"Structure (SMILES)": "COC1C(c2ccc(Cl)c(Cc3ccc(OC4CCOC4)cc3)c2)OC(CO)C(O)C1O (centres unmarked)", "system": "Sprague-Dawley rat, plasma", "setting": "oral, 5 mg/kg", "bioavailability": "111%"}
{"Structure (SMILES)": "Cc1cc2c(cc1O)C=C1C=CC(=O)C(C)(C)[C@H]1CC2", "system": "male Sprague-Dawley rat, plasma", "setting": "oral, 20 mg/kg", "bioavailability": "0.75%"}
{"Structure (SMILES)": "N#Cc1ccnc(N2C(=O)CC[C@H]2C(=O)N(c2cc(F)cc(F)c2)[C@H](C(=O)NC2CC(F)(F)C2)c2ccccc2Cl)c1 (stereo in doubt)", "system": "Sprague-Dawley rat, plasma", "setting": "oral, 10 mg/kg", "bioavailability": "44%"}
{"Structure (SMILES)": "OCC1OC(n2cnc3c(NCc4ccc(Br)s4)ncnc32)C(O)C1O (centres unmarked)", "system": "male Sprague-Dawley rat, blood", "setting": "oral", "bioavailability": "40 to 49%"}
{"Structure (SMILES)": "Cc1cccc(Cn2ncc3c4cc(F)c(CN(C)C)cc4n(C)c3c2=O)n1", "system": "Sprague-Dawley rat, plasma", "setting": "oral, 10 mg/kg", "bioavailability": "33%"}
{"Structure (SMILES)": "CCC1(CC)CC(=O)N(C2CCOc3ccc(C(=O)NC4CC(C)(C)Oc5ccccc54)cc32)C(=N)N1 (centres unmarked)", "system": "male Wistar rat, plasma", "setting": "oral", "bioavailability": "20.7%"}
{"Structure (SMILES)": "N#Cc1ccnc(N2C(=O)CC[C@H]2C(=O)N(c2cncc(F)c2)[C@H](C(=O)NC2CC(F)(F)C2)c2ccccc2Cl)c1", "system": "Sprague-Dawley rat, plasma", "setting": "oral, 10 mg/kg", "bioavailability": "42%"}
{"Structure (SMILES)": "COC(=O)C1=CNC=C(C(=O)OC)C1c1ccc(F)c(C(F)(F)F)c1", "system": "male Sprague-Dawley rat, plasma", "setting": "oral, 50 mg/kg", "bioavailability": "44.1%"}
{"note": "A few entries again:"}
{"Structure (SMILES)": "CCC1(CC)CC(=O)N(C2CCOc3ccc(C(=O)NC4CC(C)(C)Oc5ccccc54)cc32)C(=N)N1 (centres unmarked)", "system": "male Wistar rat, plasma", "setting": "oral", "bioavailability": "20.7%"}
{"Structure (SMILES)": "N#Cc1ccnc(N2C(=O)CC[C@H]2C(=O)N(c2cncc(F)c2)[C@H](C(=O)NC2CC(F)(F)C2)c2ccccc2Cl)c1", "system": "Sprague-Dawley rat, plasma", "setting": "oral, 10 mg/kg", "bioavailability": "42%"}
{"Structure (SMILES)": "COC(=O)C1=CNC=C(C(=O)OC)C1c1ccc(F)c(C(F)(F)F)c1", "system": "male Sprague-Dawley rat, plasma", "setting": "oral, 50 mg/kg", "bioavailability": "44.1%"}
